Measured values pooled from the literature.
Lines come from different studies, so protocols differ. ± marks the error that the study gave.

CCCC(CCC)NC(=O)c1ccc2c(c1)OCO2 has an AUC(0-t) ratio of 1.06 (Sprague-Dawley rats, plasma; oral, 200 mg/kg; baseline: female over male).
CSc1ccccc1C(=O)NCCn1cc(C(=O)NCc2cccc(C)n2)c(=O)c2cc3c(cc21)OC(F)(F)O3 has an AUC(0-t) of 142 ± 40 ng·h/mL (Sprague-Dawley rat, male, plasma; intramuscular, 30 mg/kg of parent compound).
For C1=C/COCc2cc(ccc2OCCN2CCCC2)Nc2nccc(n2)-c2cccc(c2)COC/1, the AUC(0-t) increase was 23% (rat Sprague-Dawley male, plasma; oral, dose not given, added: voriconazole; baseline: without voriconazole).
For C=CC(=O)N1CCC([C@@H]2CCNc3c(C(N)=O)c(-c4ccc(Oc5ccccc5)cc4)nn32)CC1, “AUC(0-t) fold change” read 0.98 fold (Sprague-Dawley rat; oral, dose not given, added: posaconazole; baseline: alone).
With Cc1cccc(CNC(=O)c2cn(CCNC(=O)c3ccccc3Sc3c([N+](=O)[O-])ncn3C)c3cc4c(cc3c2=O)OC(F)(F)O4)n1 the AUC(0-t) was 147 ± 87.7 ng·h/mL (Sprague-Dawley rat, male, whole blood; intramuscular, 30 mg/kg of parent compound).
For O=C1c2ccncc2C(=O)c2c1[nH]c1ccccc21, the AUC(0-t) was 2.5 ± 1.29 µM·h (Sprague-Dawley rat male, plasma; intravenous, 5 mg/kg).
COc1cc2nccc(Oc3ccc(NC(=O)NC4CC4)c(Cl)c3)c2cc1C(N)=O gave an AUC(0-t) increase of 94.5% (Sprague-Dawley rats male, plasma; oral, dose not given, added: posaconazole; baseline: without posaconazole).
Cc1cccc(CNC(=O)c2cn(CCNC(=O)c3ccccc3S)c3cc4c(cc3c2=O)OC(F)(F)O4)n1 gave an AUC(0-t) of 3950 ± 1520 ng·h/mL (Sprague-Dawley rat, male, whole blood; intramuscular, 30 mg/kg of parent compound).
The AUC(0-t) of CN1CCC[C@H](CN2c3ccccc3Sc3ccccc32)C1.Cl is reported as 10400 ng·h/mL (Wistar rat female, eye; oral, 16 mg/kg).
COC[C@@H](CC(C)C)NC(=O)c1ccc(C)c(C)c1 has an AUC(0-t) ratio of 1 (Sprague-Dawley rats, plasma; oral, 100 mg/kg; baseline: female over male).

Excerpt of the above:
Cc1cccc(CNC(=O)c2cn(CCNC(=O)c3ccccc3S)c3cc4c(cc3c2=O)OC(F)(F)O4)n1 gave an AUC(0-t) of 3950 ± 1520 ng·h/mL (Sprague-Dawley rat, male, whole blood; intramuscular, 30 mg/kg of parent compound).
